Measurements collected from several papers.
Numbered parts are unrelated; each lists some results of a single study.
Sequence of UniProt P03951 (whole entry, looked up): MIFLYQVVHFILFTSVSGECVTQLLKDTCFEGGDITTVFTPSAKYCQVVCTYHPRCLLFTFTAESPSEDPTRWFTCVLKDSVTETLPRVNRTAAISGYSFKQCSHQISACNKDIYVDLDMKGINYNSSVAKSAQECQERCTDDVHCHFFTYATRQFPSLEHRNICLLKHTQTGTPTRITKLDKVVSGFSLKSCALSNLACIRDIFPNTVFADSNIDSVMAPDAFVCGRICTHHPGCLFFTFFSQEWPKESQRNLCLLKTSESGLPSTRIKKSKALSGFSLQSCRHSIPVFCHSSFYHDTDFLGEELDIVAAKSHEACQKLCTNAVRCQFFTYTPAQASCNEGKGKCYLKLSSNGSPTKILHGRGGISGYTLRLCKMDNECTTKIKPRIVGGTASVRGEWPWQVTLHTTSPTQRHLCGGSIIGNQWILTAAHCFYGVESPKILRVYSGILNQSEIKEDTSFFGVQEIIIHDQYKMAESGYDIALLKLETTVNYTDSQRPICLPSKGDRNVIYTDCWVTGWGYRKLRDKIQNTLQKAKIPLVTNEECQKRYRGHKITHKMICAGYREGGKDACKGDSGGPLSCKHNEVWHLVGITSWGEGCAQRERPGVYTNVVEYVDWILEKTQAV
Sequence of UniProt Q9UKR0 (whole entry, looked up): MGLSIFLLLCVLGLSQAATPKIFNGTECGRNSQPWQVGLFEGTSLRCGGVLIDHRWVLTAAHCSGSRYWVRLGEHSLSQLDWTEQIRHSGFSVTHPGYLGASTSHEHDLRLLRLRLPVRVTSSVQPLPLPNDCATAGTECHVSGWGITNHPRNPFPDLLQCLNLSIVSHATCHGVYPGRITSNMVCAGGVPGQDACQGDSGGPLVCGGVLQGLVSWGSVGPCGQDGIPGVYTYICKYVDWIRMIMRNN
Sequence of UniProt P06870 (whole entry, looked up): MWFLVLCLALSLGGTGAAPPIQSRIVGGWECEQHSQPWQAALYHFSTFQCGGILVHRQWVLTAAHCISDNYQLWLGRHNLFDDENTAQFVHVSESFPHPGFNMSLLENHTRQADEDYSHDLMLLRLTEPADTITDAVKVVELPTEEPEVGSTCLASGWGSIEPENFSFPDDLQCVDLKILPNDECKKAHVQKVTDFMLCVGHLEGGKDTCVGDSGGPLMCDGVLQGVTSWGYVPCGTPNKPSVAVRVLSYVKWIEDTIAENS
Sequence of UniProt Q9UKR3 (whole entry, looked up): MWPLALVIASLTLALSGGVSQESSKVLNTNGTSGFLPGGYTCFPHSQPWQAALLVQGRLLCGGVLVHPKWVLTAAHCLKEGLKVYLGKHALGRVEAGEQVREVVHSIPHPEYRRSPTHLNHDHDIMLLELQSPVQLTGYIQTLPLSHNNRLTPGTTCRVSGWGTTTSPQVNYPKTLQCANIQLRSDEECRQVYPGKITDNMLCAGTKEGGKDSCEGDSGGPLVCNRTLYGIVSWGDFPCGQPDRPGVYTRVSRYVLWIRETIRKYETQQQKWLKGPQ
Sequence of UniProt Q9P0G3 (whole entry, looked up): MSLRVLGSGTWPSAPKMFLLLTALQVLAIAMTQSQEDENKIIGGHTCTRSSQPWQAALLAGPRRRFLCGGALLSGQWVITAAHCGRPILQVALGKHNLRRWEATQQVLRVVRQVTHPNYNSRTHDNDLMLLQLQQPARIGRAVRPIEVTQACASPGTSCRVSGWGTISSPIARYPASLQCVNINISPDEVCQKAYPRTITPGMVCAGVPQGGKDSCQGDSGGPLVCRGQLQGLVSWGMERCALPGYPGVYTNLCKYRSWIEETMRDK
Sequence of UniProt P08709 (whole entry, looked up): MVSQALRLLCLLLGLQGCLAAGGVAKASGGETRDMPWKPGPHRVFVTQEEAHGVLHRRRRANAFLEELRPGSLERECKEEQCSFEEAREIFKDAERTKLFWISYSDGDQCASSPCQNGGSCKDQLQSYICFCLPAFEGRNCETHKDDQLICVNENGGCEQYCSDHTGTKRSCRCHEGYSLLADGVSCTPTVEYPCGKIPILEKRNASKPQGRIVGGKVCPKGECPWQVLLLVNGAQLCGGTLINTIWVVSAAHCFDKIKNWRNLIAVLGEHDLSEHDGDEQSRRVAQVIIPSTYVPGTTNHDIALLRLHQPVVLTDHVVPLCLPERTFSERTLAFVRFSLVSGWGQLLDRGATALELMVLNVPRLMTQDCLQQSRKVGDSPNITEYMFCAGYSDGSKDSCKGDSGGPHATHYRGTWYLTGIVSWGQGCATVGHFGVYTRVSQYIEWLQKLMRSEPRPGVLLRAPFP
Sequence of UniProt P00742 (whole entry, looked up): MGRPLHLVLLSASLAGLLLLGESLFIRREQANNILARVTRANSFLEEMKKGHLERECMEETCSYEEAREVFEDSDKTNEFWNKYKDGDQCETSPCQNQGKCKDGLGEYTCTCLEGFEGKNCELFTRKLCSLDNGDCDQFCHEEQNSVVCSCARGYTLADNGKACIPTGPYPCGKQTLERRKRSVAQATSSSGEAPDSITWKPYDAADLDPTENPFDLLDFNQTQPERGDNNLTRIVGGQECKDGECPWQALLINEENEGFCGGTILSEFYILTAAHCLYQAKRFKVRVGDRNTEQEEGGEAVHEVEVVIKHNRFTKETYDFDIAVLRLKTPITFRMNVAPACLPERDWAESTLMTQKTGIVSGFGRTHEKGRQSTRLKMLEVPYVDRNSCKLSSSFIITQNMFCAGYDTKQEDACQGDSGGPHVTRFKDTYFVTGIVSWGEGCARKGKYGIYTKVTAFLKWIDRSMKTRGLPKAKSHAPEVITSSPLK

Sample 1
Cell line: HEK-293T/ACE2
Technique: Hoechst nuclei count
Tested at: concentration not given
Time: 16 (unit not given)
Baseline: vehicle
Structure (SMILES)	viability [%]
Nc1nc(F)nc2c1ncn2[C@@H]1O[C@H](CO)[C@@H](O)[C@@H]1O	99.4
O=C1CCCC(=O)C1C(=O)c1ccc(C(F)(F)F)cc1[N+](=O)[O-]	106
CCN(CC)C(=O)[C@@]1(c2ccccc2)C[C@H]1CN	104
CCCCCCCCCCCCCCCC[N+](C)(C)CCN(Cc1ccc(OC)cc1)c1ncccn1	97.8
Cc1ccccc1C(=O)Nc1ccc(C(=O)N2CCCC(O)c3cc(Cl)ccc32)c(C)c1 (centres unmarked)	102
CCCCN(CCCC)CC(O)c1cc(Cl)cc2c1-c1ccc(Cl)cc1/C2=C/c1ccc(Cl)cc1 (centres unmarked)	100
CCCCN1CCCC[C@H]1C(=O)Nc1c(C)cccc1C	102
C=C1CC[C@@]2(O)[C@H]3Cc4ccc(O)c5c4[C@@]2(CCN3CC2CC2)[C@H]1O5	99.6
Cc1ccc(=O)n(-c2ccccc2)c1	98.3
COc1cc([C@@H]2c3cc4c(cc3[C@@H](O[C@@H]3O[C@@H]5CO[C@@H](C)O[C@H]5[C@H](O)[C@H]3O)[C@H]3COC(=O)[C@H]23)OCO4)cc(OC)c1O	80.1
O=C(Nc1c(Cl)cncc1Cl)c1ccc(OC(F)F)c(OCC2CC2)c1	97.7
O=C(O[C@H]1C[N+]2(CCCOc3ccccc3)CCC1CC2)C(O)(c1cccs1)c1cccs1	105
C#C[C@]1(O)CC[C@H]2[C@@H]3CCC4=CC(=O)CC[C@@H]4[C@H]3CC[C@@]21CC	99.3
Nc1ncnc2c1ncn2[C@@H]1O[C@H](CO)[C@@H](O)[C@@H]1O	97.9

Sample 2
Structure (SMILES): N=C(N)c1ccc2cc(OC(=O)c3ccc(N=C(N)N)cc3)ccc2c1
target	IC50 [nM]
F7 (Homo sapiens, UniProt P08709)	275
F10 (Homo sapiens, UniProt P00742)	1110
Kallikrein-1 (KLK1, Homo sapiens, UniProt P06870)	2390
F11 (Homo sapiens, UniProt P03951)	0.856
Kallikrein-14 (Homo sapiens, UniProt Q9P0G3)	2.15
Kallikrein-12 (Homo sapiens, UniProt Q9UKR0)	359
Prothrombin (F2, Homo sapiens, UniProt P00734)	303
Kallikrein-13 (Homo sapiens, UniProt Q9UKR3)	302

Sample 3
Target: Leukocyte tyrosine kinase receptor (LTK, Homo sapiens, UniProt P29376)
Sequence of UniProt P29376 (whole entry, looked up): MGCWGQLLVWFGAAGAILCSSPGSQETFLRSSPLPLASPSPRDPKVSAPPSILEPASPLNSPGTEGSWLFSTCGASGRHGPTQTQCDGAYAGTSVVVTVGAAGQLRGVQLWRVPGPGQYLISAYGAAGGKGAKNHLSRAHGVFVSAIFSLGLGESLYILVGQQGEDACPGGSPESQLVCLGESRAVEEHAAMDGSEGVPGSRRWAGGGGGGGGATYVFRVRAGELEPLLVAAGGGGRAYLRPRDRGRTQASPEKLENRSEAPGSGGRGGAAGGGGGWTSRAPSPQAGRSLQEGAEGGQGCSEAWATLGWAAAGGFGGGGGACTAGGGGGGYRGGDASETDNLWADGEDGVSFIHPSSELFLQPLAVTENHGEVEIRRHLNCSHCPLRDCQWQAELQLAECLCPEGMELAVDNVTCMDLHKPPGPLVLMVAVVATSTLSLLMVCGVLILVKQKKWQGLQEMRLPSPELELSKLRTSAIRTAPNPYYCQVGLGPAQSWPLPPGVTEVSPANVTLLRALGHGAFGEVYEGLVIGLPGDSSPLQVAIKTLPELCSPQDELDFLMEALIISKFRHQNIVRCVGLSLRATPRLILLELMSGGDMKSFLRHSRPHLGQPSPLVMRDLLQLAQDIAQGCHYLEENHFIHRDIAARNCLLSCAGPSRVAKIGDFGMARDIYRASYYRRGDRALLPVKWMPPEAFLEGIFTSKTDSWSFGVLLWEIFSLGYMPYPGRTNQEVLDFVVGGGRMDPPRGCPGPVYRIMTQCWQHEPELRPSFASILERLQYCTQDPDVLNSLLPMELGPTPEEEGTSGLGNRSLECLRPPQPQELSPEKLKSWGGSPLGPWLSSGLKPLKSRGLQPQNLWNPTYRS
Observed: enzyme activity
Action: inhibitor
Technique: radiometric
Tested at: 0.5 µM
SMILES	remaining activity
COc1cc2c(N3CCN(C(=O)Nc4ccc(OC(C)C)cc4)CC3)ncnc2cc1OCCCN1CCCCC1	101%
c1cc(-c2cnn3cc(-c4ccc(OCCN5CCCCC5)cc4)cnc23)ccn1	95.4%
CCN(CC)CCCCN1c2ccccc2Oc2ccc(Cl)cc21	98.4%
N#C/C(=C(/N)SC1C=CC=CC1)c1cccc(C(O)c2ccncc2)c1 (centres unmarked)	92.8%
Clc1ccc(Nc2nnc(Cc3ccncc3)c3ccccc23)cc1	105%
FC(F)(F)c1ccc(/C=C/c2nc(COc3ccc(CCCCn4ccnn4)cc3)co2)cc1	104%

Mixed results
Structure (SMILES)	technique	quantity	value
Cc1ncsc1-c1ccc(CNC(=O)[C@@H]2C[C@@H](O)CN2C(=O)[C@@H](NC(=O)CCCCCNC(=O)Cc2ccccc2)C(C)(C)C)cc1	PRP-column chromatography	average log k' (20-100)	1.04
